Measured values gathered from unrelated publications.
A part holds a random share of what one study measured. Changes are numbered by the printed parent chain.

Sample 1 — target: CEP164, C-terminal peptide (human); technique: DHFR complementation, deep sequencing; sample: yeast; baseline: wild type; direction: higher = weaker binding; quantity: binding free energy change
Setting: single substitutions, model-inferred values
Starting sequence: PDZK1, PDZ domain 2 (human); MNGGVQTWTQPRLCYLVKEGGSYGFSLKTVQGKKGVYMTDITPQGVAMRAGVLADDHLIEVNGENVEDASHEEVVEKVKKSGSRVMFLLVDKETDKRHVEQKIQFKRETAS; partner HNRVKVYRF
D55E: 0.0272 kcal/mol
D68T: 0.114 kcal/mol
I41Q: 1.06 kcal/mol
V52G: 2.04 kcal/mol
S83P: -0.115 kcal/mol
E108W: -0.207 kcal/mol
A54Y: 0.439 kcal/mol
V66E: 0.987 kcal/mol
V5Y: 0.073 kcal/mol
Y15Q: 0.0581 kcal/mol
E64I: 0.0244 kcal/mol
L16I: 0.924 kcal/mol
K96M: -0.122 kcal/mol
C14K: 0.683 kcal/mol
C14V: -0.395 kcal/mol
K102P: -0.00129 kcal/mol
N62F: 0.129 kcal/mol
N62D: 0.726 kcal/mol
D91V: 0.585 kcal/mol
F25P: 1.83 kcal/mol

Sample 2 — technique: aptamer microarray, sandwich; form: DNA with 2'F-ANA; sample: in vitro; concentration: 200 nM; with: Cy3 exosite-II aptamer, 400 nM; direction: higher = stronger binding; quantity: mean fluorescence intensity; sequence: GGTTGGTGTGGTTGG
Target: Prothrombin, mature alpha-thrombin (F2, Homo sapiens, UniProt P00734)
Setting: whole 15-mer aptamer, many near background
2'F-ANA at 2 4 5 6 8 9 13: 71.7 a.u.
2'F-ANA at 3 6 11 12 13 15: 850 a.u.
2'F-ANA at 2 5 6 7 8 12 13 14: 47.6 a.u.
2'F-ANA at 1 5 7 9 10 11 13 14 15: 49.2 a.u.
2'F-ANA at 2 4 5 8 9 10 11 15: 91.1 a.u.
2'F-ANA at 1 2 3 4 6 7 8 9 10 11 12 14 15: 53.5 a.u.
2'F-ANA at 1 3 4 10 14 15: 52.4 a.u.
2'F-ANA at 1 2 6 10 13 15: 48.9 a.u.
2'F-ANA at 2 4 5 6 7 8 10 11 12 13: 49.2 a.u.
2'F-ANA at 1 3 5 7 8 11 12 13 14: 68.5 a.u.
2'F-ANA at 1 2 6 8 12 13 15: 259 a.u.
2'F-ANA at 4 5 6 7 9 10 12 13: 47.6 a.u.
2'F-ANA at 1 5 6 8 9 10 11 12: 51 a.u.
2'F-ANA at 1 2 3 4 5 9 10 12 13: 46.8 a.u.
2'F-ANA at 3 4 5 6 14 15: 231 a.u.
2'F-ANA at 1 2 3 6 8 9 11 13 15: 152 a.u.
2'F-ANA at 6 7 8 9 11 15: 431 a.u.
2'F-ANA at 1 2 4 5 6 11 13 15: 50.1 a.u.

Sample 3 — technique: DHFR PCA, deep sequencing; sample: yeast; with: (+)-ABA 0.11 µM; baseline: wild-type fitted maximum; direction: higher = stronger binding; quantity: relative binding score
Target: ABI1, truncated, D143A, DHFR fusion (Arabidopsis thaliana)
Setting: methotrexate growth selection, single substitutions
Starting sequence: PYL1, truncated, DHFR fusion (Arabidopsis thaliana); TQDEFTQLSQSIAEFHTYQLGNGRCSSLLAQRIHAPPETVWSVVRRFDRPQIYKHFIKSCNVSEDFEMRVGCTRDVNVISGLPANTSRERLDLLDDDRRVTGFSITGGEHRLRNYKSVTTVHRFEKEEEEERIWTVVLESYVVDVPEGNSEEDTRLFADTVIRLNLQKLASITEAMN; partner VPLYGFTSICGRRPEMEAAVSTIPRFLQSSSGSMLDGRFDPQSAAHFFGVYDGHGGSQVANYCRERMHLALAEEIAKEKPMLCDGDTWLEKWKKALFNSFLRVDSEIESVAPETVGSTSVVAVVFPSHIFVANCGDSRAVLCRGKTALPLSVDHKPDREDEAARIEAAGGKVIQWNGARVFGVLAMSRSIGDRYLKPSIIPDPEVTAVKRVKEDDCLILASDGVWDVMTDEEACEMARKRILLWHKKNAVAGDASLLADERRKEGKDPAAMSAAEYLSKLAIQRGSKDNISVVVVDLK
K54P: -0.397%
N149E: 33.4%
V161R: 1.76%
T119Q: 9.12%
C72D: 25.5%
T39E: 16.2%
M176S: 10.3%
N77Y: 43.7%
S63K: 33.9%
N114I: 1.5%
R49A: 35.2%
E174S: 3.26%
E147S: 10.9%
L20C: 43.3%
I172F: 1.83%
E64T: 27.1%
V145L: -9.56%

Sample 4 — target: CCND1, cyclin fold, Cln2 fusion (human); technique: yeast growth competition, sequencing; sample: yeast; setting: weak parent motif; baseline: not given; direction: higher = stronger binding; quantity: normalised enrichment score
Starting sequence: SAMHD1 docking peptide (human); ASKSRVQLFKDDP
R5S: 0.334
K3W: 0.516
K10G: 0.275
D11T: 0.293
D11W: 0.277
D11E: 0.747
V6A: 0.294
V6I: 0.252
Q7E: 0.572
L8I: -0.14
V6C: 0.146
K10T: 0.391
S4G: 0.273
D11S: 0.626
L8H: -0.172
V6W: -0.18
D11Q: 0.0656

Sample 5 — target: ATF1, bZIP domain (human); technique: DHFR protein complementation; sample: yeast; baseline: wild-type JUN-FOS pair; direction: higher = stronger binding; quantity: binding fitness
Setting: single substitutions, most at no-binding floor
Starting sequence: JUN, bZIP domain (human); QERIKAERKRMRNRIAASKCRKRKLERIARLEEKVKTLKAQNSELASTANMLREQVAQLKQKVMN; partner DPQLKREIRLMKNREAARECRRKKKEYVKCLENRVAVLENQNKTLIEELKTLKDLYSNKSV
E32S: -1.5 natural log
K36G: -1.5 natural log
L38D: -1.54 natural log
E32V: -1.42 natural log
E32M: -1.55 natural log
Q55D: -1.64 natural log
A49S: -1.49 natural log
A46H: -1.53 natural log
E32C: -1.45 natural log
L38E: -1.54 natural log
E32F: -1.46 natural log
E32L: -1.53 natural log
A57Y: -1.43 natural log
I28G: -1.47 natural log
V56W: -1.51 natural log
S47V: -1.5 natural log
Q55H: -1.52 natural log
E44N: -1.55 natural log
E33F: -1.54 natural log
T37H: -1.47 natural log
V56D: -1.49 natural log
I28W: -1.41 natural log
L45R: -1.5 natural log

Sample 6 — technique: RNA Bind-n-Seq; form: RNA; sample: in vitro; concentration: 365 nM; baseline: no-protein control; direction: higher = stronger binding; quantity: RBNS enrichment (R)
Target: RNA binding protein fox-1 homolog 2, RRM domain, GST-SBP tag (RBFOX2, Homo sapiens, UniProt O43251-10, residues 100-194)
Setting: natural RNA segment, single round, ends assumed
Residues (chain): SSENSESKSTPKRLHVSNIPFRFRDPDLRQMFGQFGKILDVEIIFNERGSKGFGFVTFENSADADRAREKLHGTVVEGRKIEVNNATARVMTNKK
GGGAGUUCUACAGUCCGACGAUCUAUGAAAACAAAUCCACAUUCAUUAUUUCACAUUUGUCUAAGAGGUUAAGUAUCUGAAGGGAGGGUAGUGUAGAUAGCAAAUGACAGAGACAGUACACACCUAGUGUAUUUGGAAUUCUCGGGUGCCAA: 0.404
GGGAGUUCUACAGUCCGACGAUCCAAGUGCAUAUAAGAUGCCCUGAAAAGAGUAACAAAGUAUGCUUUGCCUGUUUCCACUUACCAGGAAAUUCCUUCAGAACUAGAUUAGCAUUGCCCUGCCUGUCUGAAAGUGGAAUUCUCGGGUGCCAA: 0.372
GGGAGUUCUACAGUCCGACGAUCAGUGUGUGGGACUUGGUCACUCCAUGUCAGACACACGAGCAGAGAGGAACACAAACCACUGUGGAGCCUGAAGCUCCUUAAGAAGAGUCCACAACAGCUGGUGGGAGGGUUGGAAUUCUCGGGUGCCAA: 0.748
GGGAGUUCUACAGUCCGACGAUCGAUCAGCCUCAGCCAGAGGACGAGGAGGCAGGUGACUGUCAUCAGCCUCGACUGCCACAGAGAAGCAUACUCUUGCAUCUGGGUUUGUUUACAGCGAUUCCGUGGACCGGUGGAAUUCUCGGGUGCCAA: 1.18
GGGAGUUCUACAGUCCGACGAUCUGCACUUGGGUUCCCGCCCAGGAAGGCCUUUUGCAAGAAGGAGAGGAAUGGGGGAGAGGACGUGAGGGACCACCCCCACCCACACAGCUGCCGCAGCAUCUCACACCCCGUGGAAUUCUCGGGUGCCAA: 0.433
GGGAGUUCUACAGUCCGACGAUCAGAUAAUGAAUGACACCUGAAAUGCAUAUGGUAUUUUUGGGAGAGUUAAGGUAUAAUUUGAAGGUUGGCAGACCAGUUGCGCUGAUUACUCUUAGAGAAGAAGAAAUGGAUGGAAUUCUCGGGUGCCAA: 0.837
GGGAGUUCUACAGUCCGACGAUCUAAAUGACUAUUUAUUCUUCUGCCCCCCUCUAGAGCACUCUUCUUGGCCAGACCCUCUGUCCAAGGCUCAUUAGAAGGCUGGGGUUGUGUUCAGGUGACAGACUUUAUCAUGGAAUUCUCGGGUGCCAA: 0.315
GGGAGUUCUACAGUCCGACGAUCAGAGCCUUGAUUUUCCUGGUCAGGGUGAAGUUCCCUGUGUGUCUGUAAAAUAUGAACAAGGAUUCAUGAUUUGUAAAUGCUGUUUAUUUAUUGAUUGCUUCUUUCCAAAAUGGAAUUCUCGGGUGCCAA: 1.14
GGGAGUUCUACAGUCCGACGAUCCAGAUAGAUGGUGGUAUGUUGGGUGGAAAGACAAGUUGACCAAGUUCCCUUGUCGAUGCUGAUUCCUGGAGUCAGUUGGUUAUGAGUAGUAUAAGGGAUUCCCACUACAAUGGAAUUCUCGGGUGCCAA: 1.17
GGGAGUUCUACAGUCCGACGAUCGCUGUGCCAACCUGUUCUUAGAGUGUAGCUGUAAGGGCAGUGCCCAUGUGUACAUUCUGCCUAGAGUGUAGCCUAAAGGGCAGGGCCCACGUGUAUAGUAUCUGUAUAUAUGGAAUUCUCGGGUGCCAA: 0.197
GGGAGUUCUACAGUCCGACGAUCUAUCACACCUUUACAGAAUAACAUGAUGGCAAUAUACAUACGUGAUAUUGUUAGGUGGAAUAACUUAGAAUAAAAUGAGAAUUCUUGAGUUAUAUUUUGUACUAUGGUUUUGGAAUUCUCGGGUGCCAA: 0.409
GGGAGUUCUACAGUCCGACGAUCAAAAAAAUGUAAAGUGACAGUUAAGGAAAAACAACAUAUUAAAAUAUCAGAAAAACUGUUUACCCAGAGAAUUAUUUUCUCCCCACUUUUAUUUUUACUCAGUGACAUAAUGGAAUUCUCGGGUGCCAA: 0.685

Sample 7 — technique: protein binding microarray; form: double-stranded DNA, one strand shown; sample: in vitro; concentration: not given; baseline: not given; direction: higher = stronger binding; quantity: E-score
Target: Histone acetyltransferase KAT6A, winged helix 2, GST fusion (KAT6A, Homo sapiens, UniProt Q92794, residues 85-181)
Setting: 8-mer, flanks averaged, mean of 2 arrays, mostly near background
Construct (chain): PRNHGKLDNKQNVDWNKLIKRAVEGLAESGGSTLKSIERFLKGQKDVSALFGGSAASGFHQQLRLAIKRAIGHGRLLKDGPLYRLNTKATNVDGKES
TCGGTCCA: -0.061
CAATCTAA: -0.0727
ACGGATAA: -0.00915
TCTTTAAA: 0.189
CTTCCCAA: -0.0487
CCCAGCGA: 0.159
CATGGTGG: -0.0198
ACTAATGA: -0.0551
ATTCCCGA: 0.04
GAGTCCGA: 0.0883
ACCCGTAC: -0.225
ATATCTGC: 0.0583
AGCATTAA: -0.0844
ATGACTAC: -0.331
CACCCGAC: 0.176
CTTTAGTC: -0.0775
AACAAAGA: -0.00716
ACCAAAAA: 0.22
AAGGTTAA: -0.0576
ACAATCAT: -0.113
AGTGTTGC: 0.0677
GAAACATC: 0.0472

Repeated from above (sample 1):
E108W: -0.207 kcal/mol
A54Y: 0.439 kcal/mol
V66E: 0.987 kcal/mol
V5Y: 0.073 kcal/mol
Y15Q: 0.0581 kcal/mol
E64I: 0.0244 kcal/mol
L16I: 0.924 kcal/mol
K96M: -0.122 kcal/mol
C14K: 0.683 kcal/mol
C14V: -0.395 kcal/mol
K102P: -0.00129 kcal/mol
